Published values pooled from the literature.
A part holds a random share of what one study measured.

Series 1
Target: Hepatocyte nuclear factor 3-beta, forkhead domain (FOXA2, Homo sapiens, UniProt Q9Y261, residues 142-269)
Method: protein-binding microarray
Molecule type: double-stranded DNA, one strand shown
Sample: in vitro
Tested at: not given
Notes: k-mer, scored over probes, only values ≥0.25
Reading: higher = stronger binding
Residues (chain): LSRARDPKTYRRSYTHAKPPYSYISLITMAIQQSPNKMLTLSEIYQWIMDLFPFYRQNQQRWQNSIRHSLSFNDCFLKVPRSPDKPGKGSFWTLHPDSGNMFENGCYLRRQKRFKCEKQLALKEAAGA
| Oligonucleotide | E-score |
| --- | --- |
| AATACCCA | 0.266 |
| CGTGTATA | 0.262 |
| ATGATTAG | 0.27 |
| ACAAATGG | 0.259 |
| AAATGTAT | 0.295 |
| ACAACATC | 0.282 |
| AACATCAA | 0.351 |
| AACTATAC | 0.292 |
| ATTACATG | 0.26 |
| ACATATGT | 0.394 |
| GATATGAA | 0.269 |
| AATAGGAT | 0.268 |
| TAATGTAA | 0.362 |
| GTAGAATA | 0.3 |
| CATCAATA | 0.323 |
| CATTCATA | 0.312 |
| CATCATAC | 0.328 |
| ACTGCATA | 0.256 |
| TGTGTCAA | 0.324 |
| AGGTGTAT | 0.26 |
| AATATAGT | 0.316 |
| ACAGATAT | 0.297 |
| ACGATATG | 0.301 |
| AATGCAAA | 0.307 |
| CAATTACA | 0.284 |

Series 2
Target: Histone acetyltransferase KAT6A, winged helix 1, GST fusion (KAT6A, Homo sapiens, UniProt Q92794, residues 1-85)
Method: protein binding microarray
Molecule type: double-stranded DNA, one strand shown
Sample: in vitro
Tested at: not given
Notes: 8-mer, flanks averaged, mean of 2 arrays, mostly near background
Reference: not given
Reading: higher = stronger binding
Target sequence (chain): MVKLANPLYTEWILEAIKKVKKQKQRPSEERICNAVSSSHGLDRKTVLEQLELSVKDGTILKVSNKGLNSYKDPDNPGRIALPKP
| Oligonucleotide | E-score |
| --- | --- |
| TACACAAA | -0.0659 |
| CAAATAGC | -0.0999 |
| GGCCCGCA | 0.218 |
| GGCCCACC | 0.052 |
| GCTCATGA | -0.0433 |
| AAGCCCGC | 0.345 |
| CGCTGCGA | 0.149 |
| ACGGGGAG | 0.284 |
| CGGCCAAG | 0.211 |
| ATCGCTAC | 0.123 |
| CAGTTAAC | 0.11 |
| AGTGCACT | -0.3 |
| AACTTTTG | -0.131 |
| GCGCCGCA | 0.441 |
| CTGTGGGC | -0.245 |
| CGGTCTTA | 0.141 |
| ACCTTATG | -0.196 |
| AGGATTGA | -0.156 |
| CACCCTAG | -0.341 |

Series 3
Target: RING finger protein unkempt homolog, zinc fingers 1-6, SBP tag (UNK, Homo sapiens, UniProt Q9C0B0, residues 30-357)
Sequence of UniProt Q9C0B0 (30-357, looked up): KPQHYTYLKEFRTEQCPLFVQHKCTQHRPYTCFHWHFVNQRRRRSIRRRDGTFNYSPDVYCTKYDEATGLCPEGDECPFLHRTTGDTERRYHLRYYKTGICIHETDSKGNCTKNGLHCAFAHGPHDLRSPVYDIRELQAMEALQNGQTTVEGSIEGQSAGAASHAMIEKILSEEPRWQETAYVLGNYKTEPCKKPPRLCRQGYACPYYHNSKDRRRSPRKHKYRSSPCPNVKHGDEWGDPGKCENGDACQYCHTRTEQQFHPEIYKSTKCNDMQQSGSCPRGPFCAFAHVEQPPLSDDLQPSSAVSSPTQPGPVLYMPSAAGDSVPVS
Method: RNA Bind-n-Seq
Molecule type: RNA
Sample: in vitro
Tested at: 100 nM
Notes: RNA with constant flanks, vertebrate orthologous sites, ends assumed
Reference: input RNA pool
Reading: higher = stronger binding
Constant ends, left off below: GGGAGUUCUACAGUCCGACGAUC … CAACAGAGGAUUGAGCAUCA
| Oligonucleotide | bound/input enrichment |
| --- | --- |
| CACAUCUGGUGAUAUUUGGCCUGGCCUUUCAGCUUACGAUAAUAGUCCCAGAUCACCUCAUAGUCCUUCACCGAUUGCUACACCACCUAGUCAGAGUUCAUCUUGCUCUGAUGCCCCCAU | 0.818 ratio |
| CUGUUGUUAAGCACUGUGUUCCAGACCGUGUCUGACUUUAGCGUAACCUAGGAGAUUUUAUAGUUUUAUUUUAAUGAAAUCCUGCUCGACGCAGAACAGCGGGGAGAGCAGUGUCUUCUG | 1.31 ratio |
| CACUCAACUUGUUCUAACUUGUGACCCUUCAGCGUUGAGUCAGGCAUUAAUGCCAGGUACUAGAACUUUUUGUUUCUCUCUUACCACUGAGCAGAGAGAUCUUAGAAGCAGAAAUCCACG | 0.447 ratio |
| CAUAAAAUAUUGGAUGCAGUGUAUAAAUUAUCCAAGGCAGUGACUUCAGCUUUAUAUAUAUUGUUGGUUUUUAAGUCAUCUAUAUUUAUUUAAACUUCUAUAUUGGAUUGUUUGCUCAGU | 0.275 ratio |
| CAGCUUAGCGAACACAGUUUUGGAGAAAUAAUAAUAAUAAUAUUUAAAAAAGAAAGAGCCUGAUUGGUAUCUUUUUGUCUAACUGUUUUUCAAAGAGAAAGUUUAAAAGAAAAAAAAAGA | 0.414 ratio |
| ACCAUGGCUGCUUUGUAUGACCUCAGUGAGUCACAGUCUCCCUUGGCAUUUAGUCAGUAGUAGAGCCAGUCAUCCUUAACAAAUCUUUUCACAUUUUAUUUCUUCUGUACAUAGUCGUUU | 1.6 ratio |
| UUGUCUGCCUCAUUCUAAAUUUACACAGUAGACCAUUUGUCAUCCAUGCUGUCCCACAAAUAGUUUUUUUGUUUACGAUUUAUGACAGGUUUAUGUUACUUCUAUUUGAAUUUCUAUAUU | 2.06 ratio |
| UGUACUUGGAAAAAACAUCAUCCUAAUUUUAAGCUAGUCACAGUGAUAACUAGUCUGUGCUAGUGGAAUCAUUUACUCUUACCUUUUAAAUUAUCUUCUUUGUCUGAUACCUGAAACCAA | 0.904 ratio |
| GUUGUACCCCUGCUGUAUAAUAAACACCCUUAGACAUUUAUCAGCUCUUGAUACAAAUGUUAGUCCCUAACCACUUUUUAUAUGUUUUAAAUUUUUGAAAUUCAAGUGUAUCUGCCAUAA | 2.48 ratio |
| UCUAUAGAAUUUUAAAGACACUUCCUUAUAAAGCACUUUGGCUCCUCCUAUAUUUAAUCGUAUUUACAUAUCUAUUUUUUAUAAAUAACAGUAUGAAUUCAAAGGGGACUCGUGGUGUUA | 0.919 ratio |
| AAGAACAGGAGCAGCAUAAACUGAGCUUUGGGGAAAUAAGCUUUGCUUUUUAUAUUUAAAUAGGAUACUUUUAUAUGAUGGGUGCUUUGAGUGUGAAUGCAGCAGGCUCUCCAUUUCGGA | 1.55 ratio |

Series 4
Target: RNA binding protein fox-1 homolog 2, RRM domain, GST-SBP tag (RBFOX2, Homo sapiens, UniProt O43251-10, residues 100-194)
Method: RNA Bind-n-Seq
Molecule type: RNA
Sample: in vitro
Tested at: 365 nM
Notes: natural RNA segment, single round, ends assumed
Reference: no-protein control
Reading: higher = stronger binding
Constant ends, left off below: GGGAGUUCUACAGUCCGACGAUC … UGGAAUUCUCGGGUGCCAA
Residues (chain): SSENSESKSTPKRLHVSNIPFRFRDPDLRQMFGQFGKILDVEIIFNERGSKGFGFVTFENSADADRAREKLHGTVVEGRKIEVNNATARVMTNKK
| Oligonucleotide | RBNS enrichment (R) |
| --- | --- |
| UGAGCAGAUGAGGCCACAGAAGCACAAGGGGAAGGUGCCGUGUCAAGCCCAGGCAGACGAGACCUCUGCCCUGAAGACCAACACCAGCCCGUGGGCUGCCCCCUGCCUCC | 0.302 |
| AGAACACAUGACUUUUUAAAGAAAAUUACUAAGCAAACUGGAAAAGUGAAGUAUUUUCAUAGUGAUCUGUGCUCCACUUAAUGUUUCCCAGGGACCAUUAGUGUCUUUUU | 0.546 |
| AGAGUAGCUAGGAUUACAGAUACGUGCCACCAUACCCGGCUAAUUUUUAUAUUUUUAGAGACAGGGAUUCAACAUGUUGGUUAGGCUGGUCUUGAACUCCUCACCUCAGG | 0.36 |
| ACCCGCUCGCUCCUAAAGAGAAAGACCCAGGACCCUCCCCCAUCACCCCCAAGAGAGGUUCGCCAUCCUCUGGCCUCGAGCCCUUGGUCCCUCCGUCCGUCUGUCCUCGG | 0.637 |
| UUUCUUAAGGAUGCUGAGGGCAUGGGGCCAGGACCAGGGGAGAGGCACAGCUCCUUCCUGAGCAGCCUCUCACCACUGCCACAAGGCUCCCUAAUGCUGGUCUCUGCUCC | 0.289 |
| UCUGCCCACCUCAUCCUCCAAAAGUGCUGGGAUUACAGGCAUGAGCCACUGCGCCUGGCCUCAGAAUGCAUUCUUACACAUCUAUCCUAGACAUUUAUAAGCACUCUAAU | 0.875 |
| AUGCUUAAAUUCUUUUCAGUUUUCACAGUGGCACAUUUAGGCAUGGGGAUAGUACUAAUUAUGAAAUUUCCUGCAGGAUCUGUUCUAAGGUUGAAAUUUAGCCCAGCUCU | 0.519 |
| ACUUUGCCAUAUUUUCACCAUUUGAUUAUGUAGCAAAAUACAUGACAUUUAUUUUUCAUUUAGUUUGAUUAUUCAGUGUCACUGGCGACACGUAGCAGCUUAGACUAAGG | 0.299 |
| AUAUAUCAGAAUUACUUUAUAGUUUGAAAGCACUUUGCACACAUUUCCUGUAUAUAAAGGAUGUAAUUACAGGAUAUAGUGGUAAUGCAUUAAAACAUGAACCUCAUUUU | 9.7 |
| CUGGAAAAGGAGCUUCAGUAUUGUGGGGCUCAUAAAACAUGAAUCAAGCAAUCCAGCCUCAUGGGAAGUCCUGGCACAGUUUUUGUAAAGCCCUUGCACAGCUGGAGAAA | 0.342 |
| CCAGCCGCCUAGGACACAGCCAACCCCGGCCCCUGGUCAGGCCCCUGCAGCUGCCUCACACCGCCCCUUGUGCUCGCCUCAUAGGUGUCUAUUUGGACUCUAAGCUCUAC | 0.456 |
| UGACUUUGCAUAUAGGGCUCCCAUGCACCCACCGUUCCUCUGUUUUGAAACUCUAAUUGCAAUAACUUCAGUCUUUCUCCAUCUUCAGCUGUAUCCACAAAAUCUCCACU | 1.66 |

Series 5
Target: Interferon regulatory factor 5, full length, phosphomimetic (IRF5, Homo sapiens, UniProt Q13568-2, residues 1-514, S451D/S453D/S456D/S462D)
Method: protein-binding microarray
Molecule type: double-stranded DNA, one strand shown
Sample: in vitro
Tested at: 940 nM top
Notes: 60-bp whole probe
With: salmon DNA 0.4 mg/ml
Reference: random background probes
Reading: higher = stronger binding
Constant ends, left off below: GCCTAGCAC … GTCTTGATTCGCTTGACGCTGCTG
| Oligonucleotide | fitted relative affinity [z-score] |
| --- | --- |
| TTAGGTCTCCTTCTCCTTCAGTGCTAG | 0.519 |
| AAAGTTATCACTTCCAAAGTGTGCTAG | 0.406 |
| GACGGACTGCTTCCCCTGACGTGCTAG | -0.381 |
| TCATTCTTGCATCTGGGACTGTGCTAG | 0.337 |
| TTAGGTTTCCTTATCCATTAGTGCTAG | 2.05 |
| CACTATTTAAGACCTATGCACGTGCTA | 0.132 |
| TCATTTTTTTTTTTTACACTGTGCTAG | 1.76 |
| GCCGGACTGGGGTATCGGGACGTGCTA | 0.247 |
| TCAGCTTTCTCTTTCACACTGTGCTAG | 2.17 |
| TGTGTTTTCACTTTTCCTACGTGCTAG | 2.41 |
| TTAGGTATCCGTTTCGGTTAGTGCTAG | 4.33 |
| TTAGGACTGCTTCTCCTATAGTGCTAG | 0.0344 |
| GACGGTTACCTTTCCCTGACGTGCTAG | 0.687 |
| TCATTCATGAAGTTTTAAACTGTGCTA | -0.143 |
| GACGATATCAGTATCGAGACGTGCTAG | 2.19 |
| TTAGGACTGGACACTAGGTTAGTGCTA | -0.465 |
| TCAACTCTTGCTTTTTAACTGTGCTAG | 0.722 |
| GACGATATCGGGACTGGAGCCGTGCTA | -0.312 |
| TTAGATTACAGTTCCGATTAGTGCTAG | 1.22 |
| TTAGGTATCGGTAGCGGTTAGTGCTAG | 9.41 |
